Experimental data gathered from unrelated publications.
Each numbered part is a random draw from the data of one study; scales do not carry over between parts. Substitutions count along the parent as printed.
UniProt Q9BX84, sequence (whole entry, looked up): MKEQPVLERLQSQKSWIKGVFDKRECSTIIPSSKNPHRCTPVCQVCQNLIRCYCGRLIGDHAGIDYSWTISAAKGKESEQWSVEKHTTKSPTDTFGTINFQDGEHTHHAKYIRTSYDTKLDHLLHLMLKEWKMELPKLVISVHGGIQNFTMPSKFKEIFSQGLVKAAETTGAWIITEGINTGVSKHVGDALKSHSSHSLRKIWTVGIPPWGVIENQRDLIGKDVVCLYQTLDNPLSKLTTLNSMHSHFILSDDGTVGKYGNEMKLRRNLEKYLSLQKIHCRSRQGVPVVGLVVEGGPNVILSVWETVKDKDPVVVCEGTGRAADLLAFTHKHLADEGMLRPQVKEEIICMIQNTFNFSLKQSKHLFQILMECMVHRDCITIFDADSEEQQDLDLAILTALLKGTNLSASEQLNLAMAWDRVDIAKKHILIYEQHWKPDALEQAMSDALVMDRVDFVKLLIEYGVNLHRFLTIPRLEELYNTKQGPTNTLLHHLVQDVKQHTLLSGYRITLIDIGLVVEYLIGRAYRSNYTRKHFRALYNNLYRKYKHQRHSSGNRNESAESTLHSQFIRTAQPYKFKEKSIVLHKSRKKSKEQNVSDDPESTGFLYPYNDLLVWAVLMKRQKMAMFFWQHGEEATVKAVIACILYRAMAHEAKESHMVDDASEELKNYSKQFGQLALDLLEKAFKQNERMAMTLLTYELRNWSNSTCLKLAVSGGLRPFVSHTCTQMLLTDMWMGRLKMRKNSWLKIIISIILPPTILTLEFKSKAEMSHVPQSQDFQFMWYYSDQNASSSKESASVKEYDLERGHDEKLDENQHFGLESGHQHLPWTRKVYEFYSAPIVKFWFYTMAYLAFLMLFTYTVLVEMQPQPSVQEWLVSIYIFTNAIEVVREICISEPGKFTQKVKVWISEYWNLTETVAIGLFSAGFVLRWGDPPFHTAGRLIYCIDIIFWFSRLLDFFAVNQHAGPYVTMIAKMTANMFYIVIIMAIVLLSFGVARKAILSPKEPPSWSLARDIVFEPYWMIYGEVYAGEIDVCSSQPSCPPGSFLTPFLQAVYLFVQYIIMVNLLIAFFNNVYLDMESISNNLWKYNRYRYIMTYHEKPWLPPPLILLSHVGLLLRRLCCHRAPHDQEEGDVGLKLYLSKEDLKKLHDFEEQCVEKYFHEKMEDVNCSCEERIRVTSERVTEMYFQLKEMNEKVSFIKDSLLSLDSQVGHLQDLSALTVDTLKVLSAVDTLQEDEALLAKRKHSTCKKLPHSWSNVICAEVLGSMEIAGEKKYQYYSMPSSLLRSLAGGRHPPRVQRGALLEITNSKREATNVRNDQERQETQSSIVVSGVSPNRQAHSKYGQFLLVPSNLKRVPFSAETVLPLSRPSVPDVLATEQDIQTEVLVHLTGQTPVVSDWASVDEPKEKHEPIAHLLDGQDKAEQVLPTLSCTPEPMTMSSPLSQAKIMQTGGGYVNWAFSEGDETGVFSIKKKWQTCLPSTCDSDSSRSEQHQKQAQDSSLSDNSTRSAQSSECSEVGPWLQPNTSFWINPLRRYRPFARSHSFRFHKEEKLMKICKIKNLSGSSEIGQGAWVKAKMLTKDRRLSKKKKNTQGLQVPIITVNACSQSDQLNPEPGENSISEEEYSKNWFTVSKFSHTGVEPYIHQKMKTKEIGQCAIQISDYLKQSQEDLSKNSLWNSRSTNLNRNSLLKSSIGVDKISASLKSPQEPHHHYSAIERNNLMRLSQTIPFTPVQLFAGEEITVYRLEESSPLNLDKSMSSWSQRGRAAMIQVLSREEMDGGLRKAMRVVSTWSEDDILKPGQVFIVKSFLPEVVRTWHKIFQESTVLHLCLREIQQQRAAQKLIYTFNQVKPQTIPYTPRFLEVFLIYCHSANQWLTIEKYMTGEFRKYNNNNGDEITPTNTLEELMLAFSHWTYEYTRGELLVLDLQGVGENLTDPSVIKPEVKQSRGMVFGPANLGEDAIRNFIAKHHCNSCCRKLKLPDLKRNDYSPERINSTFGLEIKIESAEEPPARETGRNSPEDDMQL
UniProt P00519, sequence (whole entry, unmodified, looked up): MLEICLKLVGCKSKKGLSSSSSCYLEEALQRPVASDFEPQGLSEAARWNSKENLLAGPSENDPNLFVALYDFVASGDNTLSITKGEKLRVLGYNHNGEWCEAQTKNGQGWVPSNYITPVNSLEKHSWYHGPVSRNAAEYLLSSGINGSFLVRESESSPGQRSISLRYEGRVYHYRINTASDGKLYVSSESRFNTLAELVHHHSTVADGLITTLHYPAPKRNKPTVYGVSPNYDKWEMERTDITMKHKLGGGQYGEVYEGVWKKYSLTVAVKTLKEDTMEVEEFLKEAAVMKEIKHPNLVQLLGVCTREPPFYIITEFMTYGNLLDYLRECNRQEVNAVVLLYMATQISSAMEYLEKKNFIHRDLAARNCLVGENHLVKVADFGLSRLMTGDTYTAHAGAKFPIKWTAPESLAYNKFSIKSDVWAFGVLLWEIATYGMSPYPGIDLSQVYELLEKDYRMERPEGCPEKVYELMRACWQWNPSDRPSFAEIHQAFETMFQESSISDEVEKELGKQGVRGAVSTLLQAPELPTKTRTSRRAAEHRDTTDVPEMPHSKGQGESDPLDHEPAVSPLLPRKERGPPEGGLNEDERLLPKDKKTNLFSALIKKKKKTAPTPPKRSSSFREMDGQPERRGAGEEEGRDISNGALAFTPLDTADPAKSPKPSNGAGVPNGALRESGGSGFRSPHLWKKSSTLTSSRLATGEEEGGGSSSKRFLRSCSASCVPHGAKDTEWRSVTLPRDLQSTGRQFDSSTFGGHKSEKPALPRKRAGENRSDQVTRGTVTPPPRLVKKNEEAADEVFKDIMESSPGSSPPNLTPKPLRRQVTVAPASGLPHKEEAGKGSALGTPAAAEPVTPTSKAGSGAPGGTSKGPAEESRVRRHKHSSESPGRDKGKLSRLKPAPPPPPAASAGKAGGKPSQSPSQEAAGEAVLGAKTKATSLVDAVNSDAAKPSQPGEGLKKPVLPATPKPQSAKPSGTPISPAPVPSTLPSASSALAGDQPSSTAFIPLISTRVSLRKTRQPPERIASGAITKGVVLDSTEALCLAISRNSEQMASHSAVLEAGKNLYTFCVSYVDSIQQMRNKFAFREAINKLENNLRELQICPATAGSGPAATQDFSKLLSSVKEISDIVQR
UniProt Q32MK0, sequence (whole entry, looked up): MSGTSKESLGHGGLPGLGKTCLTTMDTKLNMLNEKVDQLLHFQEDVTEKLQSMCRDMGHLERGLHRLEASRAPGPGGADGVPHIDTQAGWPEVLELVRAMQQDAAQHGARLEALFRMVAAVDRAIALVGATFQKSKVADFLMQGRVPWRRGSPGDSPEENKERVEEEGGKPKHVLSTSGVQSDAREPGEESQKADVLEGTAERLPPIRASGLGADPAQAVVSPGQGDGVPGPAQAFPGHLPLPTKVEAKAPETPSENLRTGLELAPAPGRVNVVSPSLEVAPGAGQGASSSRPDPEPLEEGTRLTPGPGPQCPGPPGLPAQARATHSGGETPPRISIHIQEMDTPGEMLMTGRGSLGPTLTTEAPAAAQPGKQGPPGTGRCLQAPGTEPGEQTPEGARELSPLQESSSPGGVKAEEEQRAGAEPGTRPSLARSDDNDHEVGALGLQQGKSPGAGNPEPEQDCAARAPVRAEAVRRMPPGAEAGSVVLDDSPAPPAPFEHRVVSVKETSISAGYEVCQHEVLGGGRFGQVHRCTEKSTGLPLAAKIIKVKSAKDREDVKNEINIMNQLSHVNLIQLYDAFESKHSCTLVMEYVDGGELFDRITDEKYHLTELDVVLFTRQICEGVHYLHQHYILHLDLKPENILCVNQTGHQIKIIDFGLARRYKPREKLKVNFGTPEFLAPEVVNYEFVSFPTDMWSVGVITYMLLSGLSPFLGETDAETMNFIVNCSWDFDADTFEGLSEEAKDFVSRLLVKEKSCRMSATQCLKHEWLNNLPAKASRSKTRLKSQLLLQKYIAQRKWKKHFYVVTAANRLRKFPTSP

Block 1
Target: SRSF protein kinase 2 (SRPK2, Homo sapiens, UniProt P78362)
UniProt P78362, sequence (whole entry, looked up): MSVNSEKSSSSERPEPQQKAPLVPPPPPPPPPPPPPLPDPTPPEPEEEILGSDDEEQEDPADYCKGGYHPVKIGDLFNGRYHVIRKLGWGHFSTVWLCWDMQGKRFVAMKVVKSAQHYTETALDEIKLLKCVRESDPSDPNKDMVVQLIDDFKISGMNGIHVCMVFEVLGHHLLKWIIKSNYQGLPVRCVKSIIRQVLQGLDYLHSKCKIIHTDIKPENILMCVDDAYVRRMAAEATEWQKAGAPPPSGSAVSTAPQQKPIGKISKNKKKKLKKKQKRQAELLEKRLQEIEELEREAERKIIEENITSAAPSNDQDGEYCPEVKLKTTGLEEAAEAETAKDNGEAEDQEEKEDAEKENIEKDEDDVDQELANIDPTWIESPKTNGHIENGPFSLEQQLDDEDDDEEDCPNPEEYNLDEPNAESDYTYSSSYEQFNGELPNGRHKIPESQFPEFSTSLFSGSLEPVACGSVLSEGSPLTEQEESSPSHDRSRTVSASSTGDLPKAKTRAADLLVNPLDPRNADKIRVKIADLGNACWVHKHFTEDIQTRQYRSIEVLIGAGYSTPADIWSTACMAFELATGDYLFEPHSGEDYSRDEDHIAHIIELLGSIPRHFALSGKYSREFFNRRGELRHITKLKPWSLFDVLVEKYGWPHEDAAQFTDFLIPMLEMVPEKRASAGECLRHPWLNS
Effect on: enzyme activity
Action: inhibitor
Concentration: 0.5 µM
Baseline: control
Compound | remaining activity [%]
Cn1sc(=O)n(Cc2ccccc2)c1=O | 98.1
O=C1NC(=O)C(c2cn(CCCn3ccnc3)c3ccccc23)=C1Nc1ccccc1 | 96.2
O=C1NC(=O)C(c2cn(CCCO)c3ncccc23)=C1c1cnccn1 | 97.9
O=C(Nc1cccc(Nc2cc(Nc3cccc(C(F)(F)F)c3)ncn2)c1)C1CC1 | 92
NCCNc1ncc(C(N)=O)c(Nc2cccc(C(F)(F)F)c2)n1 | 97.6
Nc1[nH]nc2nc3ccccc3nc12 | 95.9
O=S(=O)(c1cccc2cnccc12)N1CCCNCC1 | 83.9
Cc1nc(-c2ccccc2)c(-c2ccncc2)o1 | 92.3
Cc1cccc(-c2[nH]c(C(C)(C)C)nc2-c2ccc3c(c2)OCO3)n1 | 95.8
CCOC(=O)c1c(C)[nH]c(/C=C2\C(=O)Nc3ccccc32)c1C | 92.3

Block 2
SMILES: O=C(NC[C@@H]1[C@H]2CN(C(=O)OCc3cc(C(F)(F)F)cc(C(F)(F)F)c3)C[C@@H]12)c1ccc2[nH]nnc2c1
Concentration: 1 µM
target | test | remaining binding
PDGFRA (Homo sapiens, UniProt P16234) | cell-free assay, competition with immobilised ligand | 97%
STK17A (Homo sapiens, UniProt Q9UEE5) | cell-free assay, competition with immobilised ligand | 95%
Tyrosine-protein kinase ABL1, non-phosphorylated (ABL1, Homo sapiens, UniProt P00519, F317I) | binding, competition with immobilised ligand | 89%
MYLK3 (Homo sapiens, UniProt Q32MK0) | cell-free assay, competition with immobilised ligand | 98%
ZAP70 (Homo sapiens, UniProt P43403) | cell-free assay, competition with immobilised ligand | 60%
CDC42BPG (Homo sapiens, UniProt Q6DT37) | competition binding | 90%
NEK2 (Homo sapiens, UniProt P51955) | cell-free assay, competition with immobilised ligand | 100%
BRSK2 (Homo sapiens, UniProt Q8IWQ3) | cell-free assay, competition with immobilised ligand | 96%
TRPM6 (Homo sapiens, UniProt Q9BX84) | cell-free assay, competition with immobilised ligand | 92%
MAK (Homo sapiens, UniProt P20794) | cell-free assay, competition with immobilised ligand | 100%

Block 3
Target: JDP2, bZIP domain (human)
Technique: DHFR protein complementation
Medium: yeast
Notes: single substitutions, most at no-binding floor
Baseline: wild-type JUN-FOS pair
Reading: higher = stronger binding
Starting sequence: JUN, bZIP domain (human); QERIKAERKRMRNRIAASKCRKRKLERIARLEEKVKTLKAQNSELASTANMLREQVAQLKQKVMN; partner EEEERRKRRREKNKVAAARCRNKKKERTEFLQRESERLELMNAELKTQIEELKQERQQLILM
Change | binding fitness [natural log]
A29T | 0.22
S43Q | 0.327
N42Y | 0.267
S47M | 0.264
T37K | 0.322
L45C | 0.0148
S47Y | 0.235
E44T | 0.205

Block 4
Target: Hepatocyte nuclear factor 3-alpha (Foxa1, Mus musculus, UniProt P35582, residues 1-468, full length assumed)
UniProt P35582, sequence (whole entry, looked up): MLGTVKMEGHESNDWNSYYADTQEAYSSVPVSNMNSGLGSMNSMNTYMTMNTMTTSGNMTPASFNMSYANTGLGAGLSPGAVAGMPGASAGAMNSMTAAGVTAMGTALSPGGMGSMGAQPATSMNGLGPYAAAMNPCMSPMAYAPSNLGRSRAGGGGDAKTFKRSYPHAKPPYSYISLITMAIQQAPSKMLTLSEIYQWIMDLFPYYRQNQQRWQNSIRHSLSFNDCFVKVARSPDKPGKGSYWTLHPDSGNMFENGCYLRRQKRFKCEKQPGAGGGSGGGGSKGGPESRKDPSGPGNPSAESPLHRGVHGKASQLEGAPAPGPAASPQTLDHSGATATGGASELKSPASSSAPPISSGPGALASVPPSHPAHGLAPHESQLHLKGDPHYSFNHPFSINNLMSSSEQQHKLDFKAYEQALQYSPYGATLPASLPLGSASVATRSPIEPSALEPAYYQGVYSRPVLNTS
Technique: EMSA with sequencing
Form: double-stranded DNA, one strand shown
Medium: in vitro
Concentration: 10 and 20 nM
Notes: whole designed probe, mean of two concentrations, ends assumed
Baseline: negative control set to 0
Reading: higher = stronger binding
Sequence | normalised bound fraction
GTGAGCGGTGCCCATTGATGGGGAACCCACATGACTCATAAATAGATGGAAAGACACTCAACCACTTCAGTAGCCAAGCAAATTCAAACACACATCACAATGAGGTATTACTATACTCTGCAAACACCAAGTATCGGCAAGGATGTCGAGCGACAGGGAGTCCCGTGCACTGCCAGGGGAGGTGTGAATCGGCACATCCAGGTGGGAAAGCAAAGTGGCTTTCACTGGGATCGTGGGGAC | 0.108 ratio
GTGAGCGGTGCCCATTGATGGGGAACGTAATGGGGGACTGAGGTTCACTCTATAAGAAAGTTGTCCTCATTATTGGGACCTGATGTAAACAAAAGGAGTGTAAACATTGGGAGTTGTAATGTAAACACTGGGAGTTACTGTAAACATGCCATCATCATTCAAGGAAGGTAAACCCAGGAGCAAGAAGAGGAGCAATAAATGTGGGAATTTTGTTGAGAATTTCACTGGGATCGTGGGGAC | 0.525 ratio
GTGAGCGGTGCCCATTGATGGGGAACTGATGATACGTTATAGCATTTCTCTGCTCTGTAAGAGAGGCACCAGGGTCGTGTGCTGGGTCTGGGGTTTGTCCACACATCCGGTTTCGCTGCTGTTGACTCTGGTGTCGGCCGCTGGTGAGCTGGCTGTAGCTGGTCACCTCTGGGTGGTTTCTGGGGCGGTCGCAGGCTGACTAACACACCAAAGGTCAGCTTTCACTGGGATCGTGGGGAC | 0.00303 ratio
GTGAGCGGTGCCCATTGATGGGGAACATTTTTTTTTTCTTCCTTGCCCCACCAGCTCACCTTCCCGGGTTATTTGCAGATAGGAAAATAAATAAAGCCGGCATTCGTTAACCCTCTTCTGGCGCAAACTGCTGTTTGCTCTGGATGAATCATGGTCCTTTGGCGACGCCAGGCTCCGGGAGAGCAAAGCACCGTGTCAGGGCCATGATCCGGGGTGGCCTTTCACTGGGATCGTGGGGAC | 0.319 ratio
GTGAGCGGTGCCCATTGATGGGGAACCTTCTCCAGTTGAGTTTTCTTCATTCTGCAAATATGTGGCATTGGAAGCTGGAAAGAGGCTACTTGGCTGAAACCTTTCTGATGGAGTCTATGTAATCTTACAGAAGAAAAAATGTGTAACTAAGGTTCATATCCCTTAAAAAGAATATGTAGACAATTCAAGTGGCTGTATTAAAAGTTTCACATTCTACCATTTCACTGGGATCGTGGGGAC | 0.0368 ratio
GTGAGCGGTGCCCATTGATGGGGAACTGTTCTGAAAGCATTGGGATGCATCCATGTTTTGCGTACAGACCCCCTTCTGTCTGGTGCACTCTGCCCTCTAAAAGCTTCCTGAATTGCTTTGTAAACAAGGCAGCTACTACAGCTGCAACTGTTGGGTTTGGACTTTTGCCAGCTTGAAATTTATCCCTGCCCTAATGCTATATATCTGGGAGCAGGCAGTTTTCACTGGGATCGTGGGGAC | 0.248 ratio
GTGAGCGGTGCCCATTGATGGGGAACCAAGTTTGTGGTCCAGGAGCAACAGGTTATGCCATACAGCCTAGGTGTGTAGTAGGCTACACACCGTCTATGTTTGTGTTGTACACTCTTTGTGCAAACATTGTTGATGAAATCTTCTCAGAACCCATGACTCATATACCCCTGTTGTTAAGCGATACATGACTGTACTTTTTTTAAAAAGTCCAAGGATATATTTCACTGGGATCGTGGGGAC | 0.438 ratio
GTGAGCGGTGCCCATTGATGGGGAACATAAAGCTTTTCACCTGACGCAGGATAATAGCGAGTGCATGTGTGCTGGTTAGATTACTGTGAGTCTCTCAGAGGAAATCATGTGCATCTGTCAGATTACTTTTCCGTGGAACCTAGAAGGTCACCTCTAAAAATAATCTTGCTCGGTGTTAGAGTTTCTGTGACACAGAGGTACATACCTCACATGCTCTCCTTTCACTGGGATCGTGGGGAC | -0.061 ratio

A few entries again (block 2):
target | test | remaining binding
MYLK3 (Homo sapiens, UniProt Q32MK0) | cell-free assay, competition with immobilised ligand | 98%
ZAP70 (Homo sapiens, UniProt P43403) | cell-free assay, competition with immobilised ligand | 60%
CDC42BPG (Homo sapiens, UniProt Q6DT37) | competition binding | 90%
NEK2 (Homo sapiens, UniProt P51955) | cell-free assay, competition with immobilised ligand | 100%
BRSK2 (Homo sapiens, UniProt Q8IWQ3) | cell-free assay, competition with immobilised ligand | 96%
TRPM6 (Homo sapiens, UniProt Q9BX84) | cell-free assay, competition with immobilised ligand | 92%
